Published values collected from several papers.
Compare with care: the assays were run in different laboratories. Several values in a cell are separate wells, animals, samples, runs or records.

SMILES | cell line | assay | system | conditions | scale | quantity | value
COc1c(C)c(OS(=O)(=O)c2ccccc2)c(C)c2c1C(=O)CC(c1ccccc1)O2 (stereo not drawn) | SH-SY5Y | SRB |  |  | baseline: normal over SH-SY5Y IC50 | selectivity index | > 1.12
Cc1cc(NC2CCN(C)CC2)ccc1-c1cc2c(N3CCC[C@H](C(=O)NCc4ccc(OC(F)(F)F)cc4)C3)ncnc2[nH]1 | NCI-H2228 | cell growth or viability, MTT |  | 1 µg/mL, 72 h |  | inhibition | 95.2%
Cc1ccncc1.[Cl-].[Cl-].[Ru+2].c1cc(-c2ccc3cccnc3n2)nc(-c2ccc3cccnc3n2)c1.c1ccc2cc3nc4c5cccnc5c5ncccc5c4nc3cc2c1 | SK-MEL-28 |  |  | visible light, oxygen 1% | baseline: dark EC50 over light EC50 | phototherapeutic index | 1
CCCCCCCCCCCCCCCC(=O)OCC(CSC[C@H](N)C(=O)N[C@@H](CO)C(=O)N[C@@H](CCCCN)C(=O)N[C@@H](CCCCN)C(=O)N[C@@H](CCCCN)C(=O)N[C@@H](CCCCN)C(=O)NCCCCCC(=O)N[C@@H](CCCCN)C(=O)N[C@@H](CC(C)C)C(=O)N[C@H](C(=O)N[C@@H](Cc1ccccc1)C(=O)N[C@@H](Cc1ccccc1)C(=O)N[C@@H](Cc1ccc2ccccc2c1)C(=O)O)C(C)C)OC(=O)CCCCCCCCCCCCCCC (stereo partly drawn) | BV-2 | Western blot, item: NLRP3 |  | concentration not given | baseline: control | relative protein level | 2.12 and 2.06
CN1CCN(C(=O)c2ccc(-c3cc4c(N5CCC[C@H](C(=O)NCc6ccc(OC(F)(F)F)cc6)C5)ncnc4[nH]3)cc2)CC1 | NCI-H2228 | cell growth or viability, MTT |  | 0.008 µg/mL, 72 h |  | inhibition | 50.1%
COc1cc(N2CCN(C(=O)C3CCCN3)CC2)ccc1Nc1ncc(Cl)c(Nc2ccccc2P(C)(C)=O)n1 (stereo not drawn) | NCI-H3122 | CCK-8 |  | 2.5 nM, 48 h |  | viability | 88%
Cc1cc(N)ccc1-c1cc2c(N3CCC[C@H](C(=O)NCc4ccc(OC(F)(F)F)cc4)C3)ncnc2[nH]1 | NCI-H2228 | cell growth or viability, MTT |  | 0.04 µg/mL, 72 h |  | inhibition | 56.4%
Cn1ncc(-c2ccc3c(=O)[nH]nc(CN)c3c2)c1-c1c(F)c(Cl)cc(OC2CC2)c1C#N | CoC1 | cell viability, CellTiter-Glo |  | 120 h |  | IC50 | 0.84 µM
CC(C)c1ccc(N(C)c2ccc3c(c2)OCC[C@H]3CNc2cnccc2C(=O)O)cc1 | NCI-H647 | cell growth or viability, ATP luminescence |  | 7 days |  | IC50 | 0.00984 µM
Cc1ncsc1-c1ccc(C(C)NC(=O)C2CC(O)CN2C(=O)C(NC(=O)CCCCCCCCCCN2CCCC(Nc3ncc(Cl)c(Nc4ccccc4S(=O)(=O)C(C)C)n3)C2)C(C)(C)C)cc1 (stereo not drawn) | 22Rv1 | RNA-seq, item: ZNF658B mRNA |  | concentration not given | baseline: DMSO | log2 fold change | -1.55
O=C(Nc1nnc2c1c(-c1ccc(Cl)cc1)nc1sc(=Cc3ccco3)c(=O)n12)c1ccccc1 (mixture of isomers) | SNB-75 | SRB |  | 10 µM, NCI60 single-dose screen | baseline: untreated | cell growth | 50.4%
N#Cc1cccc(/C=C/C(=O)c2ccc(O)cc2)c1 | U-87 MG | item: DUS3L |  | concentration not given | baseline: untreated | fold change | 0.05
Cn1cc(-c2cc3c(N4CCC[C@H](C(=O)NCc5ccc(OC(F)(F)F)cc5)C4)ncnc3[nH]2)cn1 | NCI-H2228 | cell growth or viability, MTT |  | 0.2 µg/mL, 72 h |  | inhibition | 62.8%
O=C(C[Se]C(=O)c1ccccc1Nc1cccc(C(F)(F)F)c1)Nc1cccc(C(F)(F)F)c1 | NCI60 NSCLC subpanel | NCI60 five-dose screen |  |  |  | GI50 | 1.71 µM
Oc1c(/N=N/c2ccccn2)ccc2ccccc12 | LDR | silenced CMV-GFP reporter derepression, qHTS |  |  |  | EC50 | 10 µM
Cc1n[nH]c(C)c1-c1cc2c(N3CCC[C@H](C(=O)NCc4ccc(OC(F)(F)F)cc4)C3)ncnc2[nH]1 | NCI-H2228 | cell growth or viability, MTT |  | 0.2 µg/mL, 72 h |  | inhibition | 71.6%
COC(=O)c1cc(NC2=NC(=O)C(=Cc3ccc(N(C)C)cc3)S2)ccc1OC(C)=O | A549 | item: TGFB1 |  | 2.93 µM, 24 h | baseline: DMSO | mRNA level | 101 fold change
CCCCCCCCCCCC(=O)N[C@@H](CO)C[C@@H](O)c1cccc(CCCCCC)c1 | HeLa | CERT activity, HPLC-MS/MS lipidomics, item: ceramide 20 |  | 1 µM, 24 h, not cell-number normalised |  | ceramide level | 129 pmol/sample and 145 pmol/sample and 216 pmol/sample
COC(=O)c1cc(NC2=NC(=O)C(=Cc3ccc(C)cc3)S2)ccc1OC(C)=O | MCF7 | GC-MS, item: 2-Propenoic acid |  | 1 µM | baseline: DMSO | metabolite level | -0.12 fold change
COc1cc(OC)c(F)c(/C=C/c2cnc3ccn(S(=O)(=O)c4cn(CCF)cn4)c3n2)c1F | SNU-16 (FGFR2-amplified) | cell proliferation |  | 37.0 nM |  | inhibition | 37.6% and 22.7%
Cc1cc(Cl)cc(-c2ccnc3cc(CN4C(=O)C5C(C4=O)C5(C)C)sc23)c1C[C@@H]1CNCCO1 (stereo partly drawn) | CHP-212 resistant | PI staining flow cytometry |  | 0.3 µM, 24 h |  | cells in S phase | 12.4% and 18.3% and 13.9%

SMILES | cell line | assay | system | conditions | scale | quantity | value
COc1ccccc1-c1ccncc1C(=O)Nc1nnc(OCc2ccc(Cl)cc2)s1 | MDA-MB-436 BRCA1-mutant |  |  | 6 µM, single replicate | baseline: untreated | colony survival | 31% and 51.1% and 48.1%
[BH3-][P+]1(c2ccccc2)CCCCC1 | SW480 | annexin V/PI flow cytometry |  | IC50, 72 h |  | early apoptotic cells | 2.7%
O=C(C[Se]C(=O)C12CC3CC(CC(C3)C1)C2)Nc1cccc(C(F)(F)F)c1 | NCI60 NSCLC subpanel | NCI60 five-dose screen |  |  |  | GI50 | 3.91 µM
CO[C@@H]1[C@@H](OC(N)=O)[C@@H](O)[C@H](Oc2ccc3c(O)c(NC(=O)c4ccc(O)c(CC=C(C)C)c4)c(=O)oc3c2C)OC1(C)C | HCT-116 BRCA2 wild-type |  |  | 200 µM, replicate A | baseline: untreated | colony survival | 88.4%
Cc1nn(C)cc1-c1cc2c(N3CCC[C@H](C(=O)NCc4ccc(OC(F)(F)F)cc4)C3)ncnc2[nH]1 | NCI-H2228 | cell growth or viability, MTT |  | 0.2 µg/mL, 72 h |  | inhibition | 66.2%
CCN(C(=O)c1cc(F)ccc1Oc1nncnc1N1CCC2(C1)CN([C@H](CCCN(C)CCOC)C(C)C)C2)C(C)C | SK-LMS-1 |  | uterus | 72 h |  | GI50 | > 10 µM
COc1nc(Nc2nc(O)c3ccccc3n2)nc2ccc(C)cc12 | LDR | silenced CMV-GFP reporter derepression, qHTS |  |  |  | efficacy | 44%
Cn1ncc2cc(-c3cncc(Cl)c3N3CCC4(CCNC4=O)CC3)ccc21 | LS174T | gene expression, microarray, item: PDE4D mRNA |  | concentration not given, 4 h | baseline: untreated cells | log2 fold change | 1.71
Cc1ccc(-n2cc(CSc3nc4ccccc4n3Cc3cn(-c4ccc(C)cc4)nn3)nn2)cc1 | Caco-2 | MTT |  | 500 ppm |  | viability | 9.68%
O=C(C[Se]C(=O)c1cc2ccccc2s1)Nc1cccc(C(F)(F)F)c1 | NCI60 renal subpanel | cell growth |  | 10 µM, 48 h, one-dose |  | mean growth percent | -78.5%
CSC(=S)N/N=C(\C)c1ccc(Nc2nnc(-c3ccc(Cl)cc3)c3ccccc23)cc1 | MCF7 | cell growth or viability, MTT |  | 5 µM, 24 h |  | viability | 5.8%
CCCC(=O)N1CCN(c2ccc(NC(=O)c3ccc([N+](=O)[O-])o3)cc2Cl)CC1 | LDR | silenced CMV-GFP reporter derepression, qHTS |  |  |  | Emax | 68%
COc1ccc2c(c1)c(CC(=O)[Se]CC(=O)Nc1cccc(C(F)(F)F)c1)c(C)n2C(=O)c1ccc(Cl)cc1 | NCI60 NSCLC subpanel | NCI60 five-dose screen |  |  |  | GI50 | 1.83 µM
COCC/N=C(\S)N/N=C(\C)c1ccccc1O | LDR | silenced CMV-GFP reporter derepression, qHTS |  |  |  | EC50 | 3.98 µM
Cc1cc(NC2CCN(C)CC2)ccc1-c1cc2c(N3CCC[C@H](C(=O)Nc4ccc(C(F)(F)F)cc4)C3)ncnc2[nH]1 | NCI-H2228 | cell growth or viability, MTT |  | 5 µg/mL, 72 h |  | inhibition | 86%
CNS(=O)(=O)Nc1nccc(Cc2c(C)c3ccc(Oc4ncccc4F)cc3oc2=O)c1F | SU-DHL-16 | cell viability |  | 7 days |  | IC50 | > 1 µM
O=C(C[Se]C(=O)c1cc2ccccc2o1)Nc1cccc(C(F)(F)F)c1 | NCI60 renal subpanel | cell growth, inhibitor |  | five-dose |  | GI50 | 1.75 µM
Cc1noc(C)c1-c1cc2c(N3CCC[C@H](C(=O)NCc4ccc(OC(F)(F)F)cc4)C3)ncnc2[nH]1 | NCI-H2228 | cell growth or viability, MTT |  | 0.04 µg/mL, 72 h |  | inhibition | 31.6%
CN1CCCNC(=O)c2cccc(c2)C(=O)NCCCN(C)CCCNc2cccc3c2C(=O)c2cccc(c2C3=O)NCCC1 | SAS | RNA-Seq, item: GADD45B mRNA |  | 5 µM, 24 h | baseline: untreated cells | log2 fold change | 0.711
COc1cccc(/C=N/Nc2nc(Nc3ccccc3)nc(-n3nc(C)cc3C)n2)c1O | LDR | silenced CMV-GFP reporter derepression, qHTS |  |  |  | efficacy | 83%
CCN(CC)CC(=O)Nc1cccc(-n2cc(-c3ccc4ccc(-c5cn(-c6cccc(NC(=O)CN(CC)CC)c6)nn5)cc4c3)nn2)c1 | RCC4 | PCR angiogenesis array, item: EFNA1 |  | 5 x IC50, 2 h, normoxia | baseline: untreated | fold regulation | 1.13

Excerpt of the above:
SMILES | cell line | assay | system | conditions | scale | quantity | value
Cc1ccncc1.[Cl-].[Cl-].[Ru+2].c1cc(-c2ccc3cccnc3n2)nc(-c2ccc3cccnc3n2)c1.c1ccc2cc3nc4c5cccnc5c5ncccc5c4nc3cc2c1 | SK-MEL-28 |  |  | visible light, oxygen 1% | baseline: dark EC50 over light EC50 | phototherapeutic index | 1
COc1cc(N2CCN(C(=O)C3CCCN3)CC2)ccc1Nc1ncc(Cl)c(Nc2ccccc2P(C)(C)=O)n1 (stereo not drawn) | NCI-H3122 | CCK-8 |  | 2.5 nM, 48 h |  | viability | 88%
Cc1ccc(-n2cc(CSc3nc4ccccc4n3Cc3cn(-c4ccc(C)cc4)nn3)nn2)cc1 | Caco-2 | MTT |  | 500 ppm |  | viability | 9.68%
[BH3-][P+]1(c2ccccc2)CCCCC1 | SW480 | annexin V/PI flow cytometry |  | IC50, 72 h |  | early apoptotic cells | 2.7%
O=C(Nc1nnc2c1c(-c1ccc(Cl)cc1)nc1sc(=Cc3ccco3)c(=O)n12)c1ccccc1 (mixture of isomers) | SNB-75 | SRB |  | 10 µM, NCI60 single-dose screen | baseline: untreated | cell growth | 50.4%
COc1cc(OC)c(F)c(/C=C/c2cnc3ccn(S(=O)(=O)c4cn(CCF)cn4)c3n2)c1F | SNU-16 (FGFR2-amplified) | cell proliferation |  | 37.0 nM |  | inhibition | 37.6% and 22.7%
